Measurements gathered from unrelated publications.
Lines come from different studies, so protocols differ. Numbers after ± are the reported error.

SMILES | assay | system | conditions | scale | quantity | value
Cc1cc(N)nc(C[C@@H]2CNC[C@@H]2OCCNCC(F)(F)c2cccc(F)c2)c1 | in vitro metabolic stability | – | – | – | metabolic rate | 0.05 nmol/min/mg protein
NC12CNCCNCC(NCc3ccc(CNC(=O)CCCC(=O)NCc4ccc(-c5nncnn5)cc4)cc3)(CNCCNC1)CNCCNC2.[64Cu+2] | OLINDA dosimetry | heart wall | pretargeting, 48 h interval | – | absorbed dose | 0.0379 rad/mCi
CCCC[C@H](NC(=O)CNC(=O)CNC(=O)CN1CCN(CC(=O)O)CCN(CC(=O)O)CCN(CC(=O)O)CC1)C(=O)N[C@H]1CC(=O)NCCCC[C@@H](C(N)=O)NC(=O)[C@H](Cc2c[nH]c3ccccc23)NC(=O)[C@H](CCCNC(=N)N)NC(=O)[C@@H](Cc2ccccc2)NC(=O)[C@H](Cc2c[nH]cn2)NC1=O [copper-64 labelled] | – | female C57 mouse, B16/F1 melanoma | intravenous, 0.037 MBq, 4 h | reference: tumour over lung | uptake ratio | 1.2
[11CH3]c1ccc2nc(C3CCC3)n(-c3ccc4[nH]ncc4c3)c2n1 | extrapolated from mouse biodistribution | human male | – | – | effective dose | 4 µSv/MBq
O=C([O-])CN1CCN(CC(=O)[O-])CCN(CC(=O)NC[C@H]2CC[C@H](C(=O)N[C@H](Cc3cnc4ccccc4c3)C(=O)NCCCC[C@H](NC(=O)N[C@@H](CCC(=O)O)C(=O)O)C(=O)O)CC2)CCN(CC(=O)[O-])CC1.[64Cu+2] | PET/CT dosimetry OLINDA/EXM | healthy volunteers, spleen | up to 24 h post-injection | – | absorbed dose | 0.0448 mGy/MBq
O=C(O)[C@@H]1C[C@@H](O)CN1C(=O)[C@@H]1CCCN1 | potentiometric titration | water | 37 °C, 0.15 mol/dm3 NaCl | – | pKa2 | 5.44
CC(C)(C)NCC(SS(=O)(=O)O)c1ccccc1 (stereo not shown) | – | mouse hepatocytes | unit not given | reference: hepatocyte over total microsomal clearance | hepatocyte over microsomal clearance | > 20
CN1CCCNC(=O)c2cccc(c2)C(=O)NCCCN(C)CCCNc2cccc3c2C(=O)c2cccc(c2C3=O)NCCC1 | – | tumour-free KSN/Slc nude mice, kidney | dose not given, 10 days | – | kidney histopathology | no effect
NCCCC(=O)OCC(=O)c1ccc(O)c(C(F)(F)F)c1.O=C(O)C(F)(F)F | photolysis at 300 nm | ammonium acetate buffered acetonitrile-water | pH 5.0, 0.01 mol/L buffer | – | quantum yield of GABA release | 0.23
CCCCCCCCCCCCCCCCCC(=O)N[C@@H](CCCNC(=N)N)C(=O)N[C@@H](CCCNC(=N)N)C(=O)N[C@@H](CCCNC(=N)N)C(=O)N[C@@H](CCCNC(=N)N)C(=O)N[C@@H](CCCNC(=N)N)C(N)=O | dynamic light scattering | self-assembled micelles | 25 °C | – | hydrodynamic radius | ~99 nm
Nc1ccn([C@@H]2O[C@H](COP(=O)(O)O)[C@@H](O)[C@H]2F)c(=O)n1 | – | human liver S9 | 10 µM, 1 h, pH 7.4, 37 °C | – | metabolic loss | ~20%
CC[C@H](C)[C@H](NC(=O)[C@H](CC(C)C)NC(=O)[C@H](Cc1c[nH]c2ccccc12)NC(=O)[C@H](C)NC(=O)[C@@H](NC(=O)[C@H](Cc1ccccc1)NC(=O)[C@H](CC(=O)O)NC(=O)[C@H](CCCNC(=N)N)NC(=O)[C@H](C)NC(=O)[C@H](C)NC(=O)[C@H](CC(C)C)NC(=O)[C@H](C)NC(=O)[C@H](CC(=O)O)NC(=O)[C@H](CC(C)C)NC(=O)[C@@H](NC(=O)[C@@H](NC(=O)[C@H](C)NC(=O)[C@H](CC(C)C)NC(=O)[C@H](CCC(=O)O)NC(=O)[C@H](CO)NC(=O)[C@H](CO)NC(=O)[C@H](Cc1ccccc1)NC(=O)[C@@H](NC(=O)CNC(=O)[C@H](CCC(=O)O)NC(=O)CNC(=O)[C@@H](N)Cc1cnc[nH]1)[C@@H](C)O)[C@@H](C)O)[C@@H](C)CC)[C@@H](C)CC)C(=O)N[C@@H](C)C(=O)N[C@H](C(=O)N[C@@H](CCCCN)C(=O)N[C@H](C(=O)N[C@H](C(=O)N[C@@H](CC(=O)O)C(=O)N[C@@H](CCCCN)C(=O)N[C@@H](CCCCN)C(=O)N[C@@H](CCCCN)C(=O)N[C@@H](CCCCN)C(=O)N[C@@H](CCCCN)C(=O)N[C@@H](CCCCN)C(N)=O)[C@@H](C)O)[C@@H](C)CC)[C@@H](C)O | – | healthy humans, plasma | subcutaneous, 10 mg once weekly, 6 doses, day 36, mean | – | terminal half-life | 254 h
CC(C)[C@H](NC(=O)CNC(=O)[C@H](CCC(N)=O)NC(=O)[C@H](C)N)C(=O)O | – | human, plasma | intravenous infusion, 15 mg/kg/h, 2 h infusion, geometric mean | – | CL | 900 mL/min/kg
CCCC(CCC)NC(=O)c1ccc(OS(=O)(=O)O)c(OC)c1 | – | female Sprague-Dawley rats, plasma | oral, 50 mg/kg of parent drug | reference: 50 over 20 mg/kg dose | Cmax ratio | 1.49
CC(C)c1cnc(-c2cc(Cl)ccc2F)cc1Nc1ccncc1C(=O)NC(CO)CO | monotherapy, refers to: rash | human patients | oral, dose not given, grade 4, phase I A | – | patients with treatment-related adverse event | 0%
CC1(C)CNC(=O)c2ccccc21 | – | Sprague-Dawley rat, male, plasma | intravenous, 1 mg/kg | – | clearance | 19 ± 6 mL/min/kg
C#CCOc1ccc(/C=C2\SC(=O)N(CC(=O)NCc3ccccc3)C2=O)cc1 | inverse Kirkwood-Buff integrals | binary solvent mixture | 298.15 K, mole fraction x1 0.40 | – | Kirkwood-Buff integral G2,3 | -373 cm³/mol

SMILES | assay | system | conditions | scale | quantity | value
COCCOCCOCCOCCC(=O)NCc1cc(CNC(=O)CCOCCOCCOCCOC)cc(-c2cc3cc4nc(c(-c5ccc(CCC(=O)O)cc5)c5[nH]c(cc6nc(c(OC)c2[nH]3)CC6(C)C)cc5-c2cc(CNC(=O)CCOCCOCCOCCOC)cc(CNC(=O)CCOCCOCCOCCOC)c2)CC4(C)C)c1 | – | DMF | room temperature | – | B band absorption maximum | 366 nm
CC(C)CNC(=O)/C=C/CCc1ccc2c(c1)OCO2 | – | rat, sham-operated, plasma | oral, 50 mg/kg | – | MRT | 3.03 ± 0.93 h
COC(=O)C(c1ccccc1Cl)N1CCC(SCC(=O)c2cccc(OC)c2)C(=CC(=O)O)C1 (mixture of isomers) | HPLC-MS/MS | feline citrate plasma | 100 ng/mL, 48 h, -20 °C, storage stability | – | deviation from nominal | -4%
CCCC[C@H](NC(=O)CNC(=O)CNC(=O)CN1CCN(CC(=O)O)CCN(CC(=O)O)CC1)C(=O)N[C@H]1CC(=O)NCCCC[C@@H](C(N)=O)NC(=O)[C@H](Cc2c[nH]c3ccccc23)NC(=O)[C@H](CCCNC(=N)N)NC(=O)[C@@H](Cc2ccccc2)NC(=O)[C@H](Cc2c[nH]cn2)NC1=O [gallium-67 labelled] | – | female C57 mice, B16/F1 melanoma | intravenous, 0.037 MBq, 0.5 h | reference: tumour over kidney | tumour to tissue ratio | 1.76
NCCCC(=O)OCC(=O)c1ccc(O)cc1F.O=C(O)C(F)(F)F | photolysis at 300 nm | ammonium acetate buffered acetonitrile-water | pH 5.0, 0.01 mol/L buffer | – | quantum yield of GABA release | 0.23
Brc1ccc(Nc2nc(NN=Cc3c[nH]c4ccccc34)nc(N3CCOCC3)n2)cc1 | – | human liver microsomes | 0.1 µM, pH 7.4 | – | metabolic bioavailability | 100%
CC/C=C\C/C=C\C/C=C\C/C=C\C/C=C\CCCCOC(CC)C(=O)O (stereo not shown) | radioactivity, 14C-labelled | Wistar rat, male, kidney medulla | oral, 100 mg/kg, 1 h | – | tissue concentration | 47.3 µg equivalents/g tissue
COc1cc(CNC(=O)CCCC/C=C/C(C)C)ccc1N | eye-wiping | C57BL/6 mice, both sexes | ocular instillation, 1 min | – | moderate pain-producing concentration | 0.233 mg/mL
COc1cc(NC(C)=O)c2c(c1O)-c1c(OC)c(OC)cc3c1C(C2)N(C)CC3 (stereo not shown) | – | rat liver homogenate | 5 µg/mL, 4 h, room temperature, short-term storage | – | remaining compound | 103.7 ± 0.7%
CCC1(CC)C[C@@H](NC(=O)Nc2cccc3c(C)nccc23)c2cc(F)ccc2O1 | – | rat | intraperitoneal, 3 mg/kg, ambient temperature 17 °C | reference: vehicle | decrease in deep body temperature | ~1 °C
CN1CCC[C@]1(C)/C=C/S(=O)(=O)NC(=O)Nc1c2c(cc3c1CCC3)CCC2 | – | human, plasma | oral, 50 mg twice daily, day 1, tau 12 h, multiple ascending dose | – | AUC(0-tau) | 31.6 µg·h/mL
CC(C)(O)c1ncc([S@](N)(=O)=NC(=O)Nc2c3c(cc4c2CCC4)CCC3)s1 | – | healthy human | oral, 200 mg once daily, day 14, spray-dried dispersion, geometric mean | – | AUC(0-tau) | 181 µg·h/mL
N=C(N)NCCC[C@@H]1NC(=O)[C@H](Cc2c[nH]c3ccccc23)NC(=O)[C@@H](CC2CCCCC2)NC(=O)[C@@H]2CCCN2C(=O)[C@@H](NC(=O)CCc2ccccc2)CCCNC1=O | – | C57BL/6J mouse, spinal cord | intraperitoneal, 1 mg/kg, single dose, two-compartment model | – | redistribution rate constant (K21) | 1.08 h⁻¹
NCCCC(=O)OCC(=O)c1cc(F)c(O)c(F)c1.O=C(O)C(F)(F)F | photolysis, refers to: rearranged acid appearance | aqueous HEPES buffer with LiClO4 | pH 8.2 | – | quantum yield | < 0.01
CCCC[C@H](NC(C)=O)C(=O)N[C@H]1CC(=O)NCCCC[C@@H](C(=O)N[C@@H](C(=O)N2CCC[C@@H]2C(N)=O)C(C)C)NC(=O)[C@H](Cc2c[nH]c3ccccc23)NC(=O)[C@H](CCCN=C(N)N)NC(=O)[C@@H](Cc2ccc3ccccc3c2)NC(=O)[C@@H]2CCCN2C1=O | – | dog | day 1, start of treatment | – | haemoglobin | 14.5 g/dL
C=C(C)C(=O)Nc1ccc(-c2c(-c3ccc(Oc4nccc(C)n4)cc3)c3c(N)ncnc3n2C)cc1 | metabolic stability | cynomolgus monkey, hepatocytes | – | – | hepatocyte CLint | 3.4 µL/min/10⁶ cells
O=c1nc(NO)ccn1[C@@H]1O[C@H](CO)[C@@H](O)[C@H]1O | RT-PCR, refers to: CYP1A2 | normal rats, liver | oral, 80 mg/kg twice daily, 5 days | reference: untreated normal rats | mRNA level | < 0.1 fold
